Measurements pooled from the literature.
Lines come from different studies, so protocols differ. ± gives the spread as reported.

`N[C@H](COc1ccccc1C(F)(F)F)c1ccccc1` gave a Cmax of 226 ± 15 ng/mL (male Sprague-Dawley rat, serum; oral, 25 mg/kg).
`CNC(CC(C)C)C(=O)NC1C(=O)NC(CC(N)=O)C(=O)NC2C(=O)NC3C(=O)NC(C(=O)NC(C(=O)NCCCNC(=N)N)c4cc(O)cc(O)c4-c4cc3ccc4O)C(O)c3ccc(c(Cl)c3)Oc3cc2cc(c3OC2OC(CO)C(O)C(O)C2OC2CC(C)(NCc3ccc(-c4ccc(Cl)cc4)cc3)C(O)C(C)O2)Oc2ccc(cc2Cl)C1O` (stereo not drawn) gave a clearance of 1.5 mL/min/kg (mice; intravenous, 50 mg/kg).
Under “quantum yield of disappearance”, `NCCCC(=O)OCC(=O)c1ccc(O)cc1F.O=C(O)C(F)(F)F` is recorded as 0.24 (photolysis at 300 nm; ammonium acetate buffered acetonitrile-water; pH 5.0, 0.01 mol/L buffer).
With `C=C(c1ncc(C(=O)O)cn1)c1cc2c(cc1C)C(C)(C)CCC2(C)C` the blood cholesterol was 92 ± 17.5 mg/dL (Sprague-Dawley rat, male; oral, 100 mg/kg, 2 h, sesame oil vehicle).
With `CC(C)(O)c1ncc([S@](N)(=O)=NC(=O)Nc2c3c(cc4c2CCC4)CCC3)s1` the AUC(0-tau) was 14100 ng·h/mL (healthy human, fed; oral, 25 mg twice daily, day 1, tablet formulation, geometric mean).
`CC(C)[C@H](NC(=O)CNC(=O)[C@H](CCC(N)=O)NC(=O)[C@H](C)N)C(=O)O` gave an AUC(0-inf) of 1530 ng·h/mL (human, both sexes, plasma; intravenous infusion, 45 mg/kg/h, 2 h infusion, geometric mean).
Under hepatocyte stability, `N#Cc1ccc(-c2cc(=O)c3ccc4[nH]c(C(F)(F)F)nc4c3o2)cc1` is recorded as “stable”.
The APD50 change of `CCOc1c(C(C)(C)O)sc2cnc(Nc3ccc(N4CCC(N5CC6(COC6)C5)CC4)cc3OC)nc12` is reported as -14 ± 5% (New Zealand rabbit, male, isolated Purkinje fibres; 30 µM, 45 min, pacing 1 Hz).
For `Cc1ccc(OCC(=O)O)cc1`, the AUC(0-last) was 47500 ± 19000 ng·h/mL (Sprague-Dawley rat, male, plasma; oral gavage, 100 mg/kg of parent drug).
The accuracy deviation of `Cc1[nH]c(/C=C2\C(=O)Nc3ccc(F)cc32)c(C)c1NC(=O)CCN1CCN(C)CC1` is reported as -0.65% (dog plasma; 40 ng/mL, 24 h at room temperature after processing, 25 °C).
The emission maximum of `COc1cc(OC)cc(C2=C3C(C)=C(I)C(C)=[N+]3[B-](F)(F)n3c(/C=C/c4cccs4)c(I)c(C)c32)c1` is reported as 610 nm (dichloromethane).
`Cn1c(=O)oc2ccc(-c3ccc(CC(C#N)NC(=O)C4CNCCCO4)c(F)c3)cc21` (stereo not drawn) — result for “subjects with TEAE”: 0% (measured: anaemia; human; 80 mg single dose, fasted).
`[11CH3]c1ccc2nc(C3CCC3)n(-c3ccc4[nH]ncc4c3)c2n1`: “absorbed radiation dose” 2.5 µSv/MBq (human female, thyroid).
Under logD (octanol/water), `FC(F)(F)c1ccnc(-c2cc(C(F)(F)F)ccn2)c1.FC(F)(F)c1ccnc(-c2cc(C(F)(F)F)ccn2)c1.[Cl-].[Cl-].[Ru+2].c1csc(-c2ccc(-c3ccc(-c4nc5c6cccnc6c6ncccc6c5[nH]4)s3)s2)c1` is recorded as “positive” (shake-flask; 10 mM phosphate buffer; pH 7.4, chloride salt).
With `O=C(O)C(Cc1ccccc1)N1CSC(=S)N(CCN(CCN2CN(C(Cc3ccccc3)C(=O)O)CSC2=S)CCN2CN(C(Cc3ccccc3)C(=O)O)CSC2=S)C1` (stereo not drawn) the CC50 was 105 µM (hemolysis; human erythrocytes 5% suspension; 3 h, 37 °C, 50% hemolysis).
Under “treatment-related ALP increased, all grades”, `COCC1CN(C2CCN(c3cc(OC)c(Nc4ncc(Br)c(Nc5ccc6c(c5P(C)(C)=O)OCCO6)n4)cc3C)CC2)C1` is recorded as 14.8% (human patients; oral, 10 to 240 mg once daily).
`NC[C@@H](C(=O)Nc1ccc(-c2cn[nH]c2)cc1)c1ccccc1` — result for “conjunctival redness score”: 1 (OECD 405; New Zealand White rabbit; topical, 0.1 %, 49 h, day 3; direction not given).
Under “distribution volume (VT)”, `COC(=O)c1ccc(-c2cn(Cc3cc(Cl)ccc3O[11CH3])nn2)cc1` is recorded as 0.495 mL/cm³ (PET two-tissue compartment model; rhesus monkey, white matter; dose not given).
`CCCOc1ccc(S(N)(=O)=O)cc1-c1nc2c(CCC)nn(C)c2c(=O)[nH]1` gave a terminal half-life of 11.8 ± 3.74 h (healthy male humans, plasma; oral, 200 mg udenafil).
`C[C@H](NC(=O)COC(=O)[C@H](C)NC(=O)CO)C(=O)O` gave a depolymerization half-life of 36 s (water; pH 7, 65 °C).
With `NCCCC(=O)OCC(=O)c1cc(F)c(O)cc1F.O=C(O)C(F)(F)F` the quantum yield was < 0.01 (photolysis, measured: rearranged acid appearance; aqueous HEPES buffer with LiClO4; pH 8.2).
`Oc1cccc(-c2cccc(O)n2)n1.[Cl-].[Cl-].[Ru+2].c1cnc2c(c1)ccc1cccnc12.c1cnc2c(c1)ccc1cccnc12` has a logD of 0.17 (shake flask; octanol/acetate buffer; pH 4.00).
`CCCC1OC2CC3C4CCC5=CC(=O)C=CC5(C)C4C(O)CC3(C)C2(C(=O)COC(=O)CN(C)C)O1` (stereo not drawn) — result for “time to rapid hydrolysis”: ≤ 6 h (diluted rat plasma; 200 µg/mL, 37 °C, 5.7-fold dilution, 2% DMSO).
`CC(C)c1cnc(-c2cc(Cl)ccc2F)cc1Nc1ccncc1C(=O)NC(CO)CO` — result for “patients with any TRAE”: 19% (human patients; oral, dose not given, worst grade 2).
`CC1=CC(C)=[N+]2C1=Cc1ccc(CCC(=O)N3CCN(C(=O)c4cc(Cc5n[nH]c(=O)c6ccccc56)ccc4F)CC3)n1[B-]2(F)F` has a mean fluorescence of 3.45 AU/pixel (ex vivo imaging; athymic nude NU/J mice, U87 or U-251 xenograft, muscle; intravenous, 2.5 mg/kg, 90 min).
With `NC12CNCCNCC(NCc3ccc(CNC(=O)CCCC(=O)NCc4ccc(-c5nncnn5)cc4)cc3)(CNCCNC1)CNCCNC2.[64Cu+2]` the absorbed dose was 0.0471 rad/mCi (OLINDA dosimetry; stomach wall; pretargeting, 24 h interval).
`NCCCC(=O)OCC(=O)c1ccc(O)c(F)c1F.O=C(O)C(F)(F)F` has a quantum yield of 0.24 (photolysis, measured: GABA appearance; unbuffered water).
The remaining compound of `COc1cc(NC(C)=O)c2c(c1O)-c1c(OC)c(OC)cc3c1C(C2)N(C)CC3` (stereo not drawn) is reported as 92.7 ± 0.2% (rat liver homogenate; 50 µg/mL, 24 h, room temperature, post-preparative storage).
`CCCC(CCC)NC(=O)c1ccc(OC2OC(C(=O)O)C(O)C(O)C2O)c(O)c1` (stereo not drawn) gave a Cmax ratio of 1.55 (male Sprague-Dawley rats, plasma; oral, 50 mg/kg of parent drug; reference: 50 over 20 mg/kg dose).
`COC(=O)C(c1ccccc1Cl)N1CCC(SCC(=O)c2cccc(OC)c2)C(=CC(=O)O)C1` (mixture of isomers) — result for “deviation from nominal”: 3% (HPLC-MS/MS; feline citrate plasma; 100 ng/mL, 24 h, -80 °C, storage stability).
`CC(C)[C@H](NC(=O)[C@@H]1CCCN1C(=O)[C@H](CCCNC(=N)N)NC(=O)[C@H](CS)NC(=O)[C@H](Cc1c[nH]c2ccccc12)NC(=O)[C@H](CCCNC(=N)N)NC(=O)[C@@H](Cc1ccccc1)NC(=O)[C@H](Cc1c[nH]cn1)NC(=O)[C@H](CCC(=O)O)NC(=O)[C@H](CS)NC(=O)[C@H](CS)NC(=O)CNC(=O)[C@@H]1CC(=O)N[C@@H](CCCNC(=N)N)C(=O)NCC(=O)N[C@@H](CC(=O)O)C(=O)N[C@H](Cc2ccc(O)cc2)C(=O)N1)C(N)=O` [technetium-99m labelled] — result for “tumour to tissue ratio”: 7.71 (C57 mouse, female, B16/F1 melanoma; intravenous, 0.037 MBq, 24 h; reference: tumour over liver).
For `C[N+]1(CC(=O)OC2CCCCCCCCCCC2)CCCCC1`, the Tmax was 4.98 min (mouse, plasma; intraperitoneal, 1 mg/kg, single dose).
`O=C(NC1CCCCC1)C(c1ccccn1)N(C(=O)CCl)c1cccc(F)c1` (racemic) — result for “conversion to pyridinium salt”: > 50% (HPLC-MS; DPBS; 3 h, 37 °C).
Under “mean residence time”, `CC(C)(C)NCC(SS(=O)(=O)O)c1ccccc1` (stereo not drawn) is recorded as 1.83 h (female Swiss Webster mice, plasma; oral, 100 mg/kg, includes mean input time).
With `Nc1ncnc2c1nc(-n1nnc3c1CCC1C(CO)C1CC3)n2C1OC(CO)C(O)C1O` (mixture of isomers) the brightness was 0.13 M⁻¹ cm⁻¹ (methanol).
`CCCCN1C(=O)c2cccc3c(NCCCCN4CCOCC4)ccc(c23)C1=O` has a fluorescence brightness of 4080 M⁻¹ cm⁻¹ (aqueous medium; pH 6).
`COc1ccc2cc(-c3ccc(-c4ccc(C)cn4)nc3)oc2c1`: “fluorescence quantum yield” 0.83 (EtOH; added: quinine bisulfate reference).
`CC[C@H](C)[C@H](NC(=O)[C@H](CC(C)C)NC(=O)[C@H](Cc1c[nH]c2ccccc12)NC(=O)[C@H](C)NC(=O)[C@@H](NC(=O)[C@H](Cc1ccccc1)NC(=O)[C@H](CC(=O)O)NC(=O)[C@H](CCCNC(=N)N)NC(=O)[C@H](C)NC(=O)[C@H](C)NC(=O)[C@H](CC(C)C)NC(=O)[C@H](C)NC(=O)[C@H](CC(=O)O)NC(=O)[C@H](CC(C)C)NC(=O)[C@@H](NC(=O)[C@@H](NC(=O)[C@H](C)NC(=O)[C@H](CC(C)C)NC(=O)[C@H](CCC(=O)O)NC(=O)[C@H](CO)NC(=O)[C@H](CO)NC(=O)[C@H](Cc1ccccc1)NC(=O)[C@@H](NC(=O)CNC(=O)[C@H](CCC(=O)O)NC(=O)CNC(=O)[C@@H](N)Cc1cnc[nH]1)[C@@H](C)O)[C@@H](C)O)[C@@H](C)CC)[C@@H](C)CC)C(=O)N[C@@H](C)C(=O)N[C@H](C(=O)N[C@@H](CCCCN)C(=O)N[C@H](C(=O)N[C@H](C(=O)N[C@@H](CC(=O)O)C(=O)N[C@@H](CCCCN)C(=O)N[C@@H](CCCCN)C(=O)N[C@@H](CCCCN)C(=O)N[C@@H](CCCCN)C(=O)N[C@@H](CCCCN)C(=O)N[C@@H](CCCCN)C(N)=O)[C@@H](C)O)[C@@H](C)CC)[C@@H](C)O` has a terminal half-life of 254 h (healthy humans, plasma; subcutaneous, 10 mg once weekly, 6 doses, day 36, mean).
With `COc1ccc(/C=C/c2ccc(-c3ccc(C)cn3)nc2)cc1` the fluorescence lifetime was 1.11 ns (aqueous HEPES buffer; pH 7.4, zinc-free ligand).
With `Cc1ccccc1/N=N/c1ccc(/N=N/c2c(O)ccc3ccccc23)c(C)c1` the measured concentration was 0.227 µg/L (extracted rat blood QC samples; 0.2 µg/L, 12 h, room temperature, short-term stability).
Under “distribution rate constant k12”, `N=C(N)NCCC[C@@H]1NC(=O)[C@H](Cc2c[nH]c3ccccc23)NC(=O)[C@@H](CC2CCCCC2)NC(=O)[C@@H]2CCCN2C(=O)[C@@H](NC(=O)CCc2ccccc2)CCCNC1=O` is recorded as < 0.001 h⁻¹ (C57BL/6J mice, plasma; oral, 1 mg/kg, two-compartment model).
`C/C(=N\OCCCN1CCOCC1)c1ccc(C(F)(F)F)cc1` — result for “metabolic stability ratio”: ~3 fold (liver microsomes; reference: human over mouse).

For quick reference, copied from above:
`COC(=O)C(c1ccccc1Cl)N1CCC(SCC(=O)c2cccc(OC)c2)C(=CC(=O)O)C1` (mixture of isomers) — result for “deviation from nominal”: 3% (HPLC-MS/MS; feline citrate plasma; 100 ng/mL, 24 h, -80 °C, storage stability).
`COc1ccc2cc(-c3ccc(-c4ccc(C)cn4)nc3)oc2c1`: “fluorescence quantum yield” 0.83 (EtOH; added: quinine bisulfate reference).
`[11CH3]c1ccc2nc(C3CCC3)n(-c3ccc4[nH]ncc4c3)c2n1`: “absorbed radiation dose” 2.5 µSv/MBq (human female, thyroid).
For `Cc1ccc(OCC(=O)O)cc1`, the AUC(0-last) was 47500 ± 19000 ng·h/mL (Sprague-Dawley rat, male, plasma; oral gavage, 100 mg/kg of parent drug).
